Results collected from several papers.
A part holds a random share of what one study measured.

Study 1
Target: Prothrombin, mature alpha-thrombin (F2, Homo sapiens, UniProt P00734)
Method: aptamer microarray, sandwich
Form: DNA with 2'F-ANA
Matrix: in vitro
Concentration: 200 nM
Notes: whole 15-mer aptamer, many near background
Added: Cy3 exosite-II aptamer, 400 nM
Reading: higher = stronger binding
Sequence: GGTTGGTGTGGTTGG
Modification	mean fluorescence intensity [a.u.]
2'F-ANA at 2 3 4 9 11 12	765
2'F-ANA at 1 2 4 5 6 7 8 9 10 12 15	50
2'F-ANA at 4 7 8 11 12 15	551
2'F-ANA at 2 5 6 8 10	46.5
2'F-ANA at 2 4 7 9 12 15	633
2'F-ANA at 5 7 8 12 13 15	137
2'F-ANA at 2 3 4 7 9 11 14 15	280
2'F-ANA at 1 2 4 6 8 9 10 12 14	48.4
2'F-ANA at 1 2 14	51.5

Study 2
Target: Histone acetyltransferase KAT6A, both winged helices, GST fusion (KAT6A, Homo sapiens, UniProt Q92794, residues 1-181)
Method: protein binding microarray
Form: double-stranded DNA, one strand shown
Matrix: in vitro
Concentration: not given
Notes: 8-mer, flanks averaged, mean of 2 arrays, mostly near background
Reference: not given
Reading: higher = stronger binding
Target sequence (chain): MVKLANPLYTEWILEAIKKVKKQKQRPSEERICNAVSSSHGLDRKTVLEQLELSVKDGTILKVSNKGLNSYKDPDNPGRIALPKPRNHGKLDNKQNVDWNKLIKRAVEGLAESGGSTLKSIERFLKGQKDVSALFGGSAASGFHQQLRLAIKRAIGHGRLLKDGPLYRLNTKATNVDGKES
Sequence	E-score
GCTGAAAA	0.0202
GACTATCC	-0.05
GCGCCGCA	0.321
AGAACCCC	-0.203
AAGCCCCA	-0.341
ACTTCCAT	-0.0214
CAAGCGTG	0.0829
GGAGGCTA	0.00303
CTCTTGAA	-0.157
ACACCCAC	-0.206
TGATGGCA	-0.157
CAACTAAG	-0.157
GCAGTCGA	0.0728

Study 3
Target: Interferon regulatory factor 5, full length, phosphomimetic (IRF5, Homo sapiens, UniProt Q13568-2, residues 1-514, S451D/S453D/S456D/S462D)
Method: protein-binding microarray
Form: double-stranded DNA, one strand shown
Matrix: in vitro
Concentration: 940 nM top
Notes: 60-bp whole probe
Added: salmon DNA 0.4 mg/ml
Reference: random background probes
Reading: higher = stronger binding
Shared flanks, not repeated: GCCTAGCAC … GTCTTGATTCGCTTGACGCTGCTG
Sequence	fitted relative affinity [z-score]
CTTTTATTTTTTTTATTTATGTGCTAG	2.18
TCACCTTAGGTTTTCTGACTGTGCTAG	-0.21
GACGATCTCAGACTGGAGATGTGCTAG	-0.416
TTAGGACTGGACTCTGGGTTAGTGCTA	-0.194
TAGGCTCCAGGTTCTCTGAAGGTGCTA	-0.591
GGTAGGCGGGGCCCCTGGCCGTGCTAG	-0.957
CCACATTTGATAAATCTTTGTGTGCTA	0.349
TTAAAACTGAGTTTCGATTAGTGCTAG	8.43
TGAGGTCTCCTACTGCTTTAGTGCTAG	-0.447
GTGGGTTTGAGTCTTCTCCTGTGCTAG	-0.131
TCAATCATTGTTTTCAGTTTGTGCTAG	0.93

Further values, each from its own experiment
Molecule	target	assay	system	conditions	scale	measurement	result
PhoQ, residues 284 288 289 292 302 303 GASLAW	PhoP, residues 12 14 15 18 19 AQCLL (Escherichia coli, UniProt P23836)	Sort-seq, refers to: YFP reporter	E. coli	PhoQ-PhoP variant library, added: 10 µM Mg2+	reference: high Mg2+ state, higher = stronger signaling	fold induction	2.99
